Experimental data gathered from unrelated publications.
Protocols differ between the studies behind these lines. ± gives the spread as reported.

`CC(C)=CCC/C(C)=C/Cn1ccn2cc(C(=O)NCc3ccc(F)cc3F)c(=O)c(O)c2c1=O` gave a CC50 of greater than 250 µM (HOS; cell growth or viability; 48 h).
`Clc1ccc(-c2nnn(C34CC5CC(CC(C5)C3)C4)n2)cc1` has a CC50 of 4 ± 0.5 µg/mL (MDCK; MTT; 72 h).
For `COc1cccc(-c2nc(C)c(C(=O)Nc3cc(OC)ccc3OC)s2)c1`, the CC50 was greater than 300 µM (HEK-293T; cell growth or viability, MTS; 72 h).
For `Nc1c(Br)cc([N+](=O)[O-])cc1-c1nnn(C23CC4CC(CC(C4)C2)C3)n1`, the CC50 was 167 µg/mL (MDCK; MTT; 72 h).
For `COc1cccc(-c2nc(C)c(C(=O)Nc3ccc(OC)c(OC)c3)s2)c1`, the CC50 was greater than 300 µM (HEK-293T; cell growth or viability, MTS; 72 h).
With `Cc1nc2ccc(CN(C)c3ccc(C(=O)N[C@@H](CCC(=O)O)C(=O)O)s3)cc2c(=O)[nH]1` the CC50 was greater than 25 µM (HepG2-NTCP; viability).
`CC(C)CCCC(C)CCN1CCn2cc(C(=O)NCc3ccc(F)cc3F)c(=O)c(O)c2C1=O` (stereo not shown) has a CC50 of greater than 250 µM (HOS; cell growth or viability; 48 h).
`C#CCC(Cc1cnc2nc(N)nc(N)c2n1)c1ccc(C(=O)N[C@@H](CCC(=O)O)C(=O)O)cc1` (stereo partly shown) gave a CC50 of greater than 25 µM (HepG2-NTCP; viability).
For `COc1cccc(-c2nc(C)c(C(=O)Nc3ccc(C(C)(C)C)cc3)s2)c1`, the CC50 was 117 ± 2.05 µM (HEK-293T; MTS; 10% FBS medium; 72 h, normal cell line).
`CC[C@]1(O)C[C@H]2CN(CCc3c([nH]c4ccccc34)[C@@](C(=O)OC)(c3cc4c(cc3OC)N(C=O)[C@H]3[C@@](O)(C(=O)OC)[C@H](OC(C)=O)[C@]5(CC)C=CCN6CC[C@]43[C@@H]65)C2)C1` has a CC50 of greater than 25 µM (HepG2-NTCP; viability).
With `COCC(C)n1ccn2cc(C(=O)NCc3ccc(F)cc3F)c(=O)c(O)c2c1=O` (stereo not shown) the CC50 was greater than 250 µM (HOS; cell growth or viability; 48 h).
The CC50 of `CC[C@@H]([C@H](C)O)n1ncn(-c2ccc(N3CCN(c4ccc(OC[C@@H]5CO[C@@](Cn6cncn6)(c6ccc(F)cc6F)C5)cc4)CC3)cc2)c1=O` is reported as greater than 25 µM (HepG2-NTCP; viability).
The CC50 of `O=C(NCc1ccc(F)cc1F)c1cn2c(c(O)c1=O)C(=O)NCC2` is reported as greater than 250 µM (HOS; cell growth or viability; 48 h).
For `COc1cccc(-c2nc(C)c(C(=O)Nc3ccc(SC)cc3)s2)c1`, the CC50 was greater than 300 µM (HEK-293T; cell growth or viability, MTS; 72 h).
With `Ic1ccc(-c2nnn(C34CC5CC(CC(C5)C3)C4)n2)cc1` the CC50 was 46 ± 3 µg/mL (MDCK; MTT; 72 h).
With `C[C@@H]1CCO[C@H]2Cn3cc(C(=O)NCc4ccc(F)cc4F)c(=O)c(O)c3C(=O)N12` the CC50 was greater than 250 µM (HOS; cell growth or viability; 48 h).

Repeated from above:
With `COCC(C)n1ccn2cc(C(=O)NCc3ccc(F)cc3F)c(=O)c(O)c2c1=O` (stereo not shown) the CC50 was greater than 250 µM (HOS; cell growth or viability; 48 h).
The CC50 of `CC[C@@H]([C@H](C)O)n1ncn(-c2ccc(N3CCN(c4ccc(OC[C@@H]5CO[C@@](Cn6cncn6)(c6ccc(F)cc6F)C5)cc4)CC3)cc2)c1=O` is reported as greater than 25 µM (HepG2-NTCP; viability).
The CC50 of `O=C(NCc1ccc(F)cc1F)c1cn2c(c(O)c1=O)C(=O)NCC2` is reported as greater than 250 µM (HOS; cell growth or viability; 48 h).
